# Results collected from several papers.
# CNR1: Cannabinoid receptor 1 (CNR1, Homo sapiens, UniProt P21554)
# Sequence of UniProt P21554 (whole entry, unmodified, looked up): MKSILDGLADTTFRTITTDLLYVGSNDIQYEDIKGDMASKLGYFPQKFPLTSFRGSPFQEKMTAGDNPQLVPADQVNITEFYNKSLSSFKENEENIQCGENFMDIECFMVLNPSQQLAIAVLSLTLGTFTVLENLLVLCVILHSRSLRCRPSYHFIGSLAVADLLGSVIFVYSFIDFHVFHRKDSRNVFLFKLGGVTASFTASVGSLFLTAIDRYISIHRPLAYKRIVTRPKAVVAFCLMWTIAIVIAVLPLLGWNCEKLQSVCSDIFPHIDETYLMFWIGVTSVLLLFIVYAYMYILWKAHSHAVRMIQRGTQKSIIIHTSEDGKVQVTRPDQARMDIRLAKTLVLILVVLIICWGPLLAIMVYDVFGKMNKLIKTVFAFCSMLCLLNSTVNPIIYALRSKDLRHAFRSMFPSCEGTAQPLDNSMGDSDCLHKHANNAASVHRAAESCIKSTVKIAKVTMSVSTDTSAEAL
# CNR1 L359V: Cannabinoid receptor 1 (CNR1, Homo sapiens, UniProt P21554, L359V)
Compound,target,assay,conditions,endpoint,result
O=C(c1ccc2c(c1)c1ccccc1n2CCN1CCOCC1)c1cccc2ccccc12,CNR1,"GTPγS binding, agonist, radiometric",cell membranes,EC50,102 nM
CCCCCn1cc(C(=O)c2cccc3c2CC(C)(C)C3)c2ccccc21,"Cannabinoid receptor 1 (CNR1, Homo sapiens, UniProt P21554, L193I)","G protein activation, agonist, BRET",,EC50,43.7 nM
CC(=O)OCCCCCn1c2ccccc2c2cc(C(=O)c3cccc4ccccc34)ccc21,CNR1,"GTPγS binding, agonist, radiometric",cell membranes,EC50,55 nM
CCCCCn1cc(C(=O)c2ccc(CC)c3ccccc23)c2ccccc21,CNR1,"ligand displacement in cells, radioligand",,Ki,64.4 nM
CCCCCCn1c2ccccc2c2cc(C(=O)c3cccc4ccccc34)ccc21,CNR1,"GTPγS binding, agonist, radiometric",cell membranes,EC50,38 nM
CCCCCn1cc(C(=O)c2ccc(OC)cc2)c2ccccc21,CNR1,"binding, SPR",,Kd,0.0275 nM
CCCCCn1cc(C(=O)c2ccc(OC)cc2)c2ccccc21,CNR1,"ligand displacement in cells, radioligand",,Ki,51.9 nM
CCCCCn1cc(C(=O)c2cccc3ccccc23)c2ccccc21,CNR1 L359V,"G protein activation, agonist, BRET",,EC50,19.5 nM
CCCCCc1cc(OC(=O)C(NC(=O)CCC(=O)O)C(C)C)c2c(c1)OC(C)(C)C1CCC(C)=CC21 (stereo not shown),CNR1,"ligand displacement, radioligand",,IC50,1590 nM
CC(C)[C@H](NC(=O)c1cc(-c2ccc(F)cc2)nn1CCCCCF)C(N)=O,CNR1,"ligand displacement in cells, radioligand",,Ki,319 nM
O=C(c1ccc2c(c1)c1ccccc1n2CCN1CCCCC1)c1cccc2ccccc12,CNR1,"GTPγS binding, agonist, radiometric",cell membranes,EC50,66.1 nM
CCOC(=O)[C@](CC)(CCCSCCOCCOCCNC(=O)c1ccc(-c2c3ccc(=N)c(S(=O)(=O)O)c-3oc3c(S(=O)(=O)O)c(N)ccc23)c(C(=O)O)c1)NC(=O)c1ccc(C2CC2)c(Cc2ccc(F)cc2)n1,CNR1,"cAMP, agonist",,EC50,86 nM
CCCCCn1cc(C(=O)Cc2ccccc2OC)c2ccccc21,CNR1,"ligand displacement, radioligand",cell membranes,IC50,210 nM
CCCCCn1c2ccccc2c2cc(C(=O)c3ccncc3)ccc21,CNR1,"cAMP, agonist, BRET",,EC50,166 nM
CC1=C[C@H]2c3c(O)cc(CCc4ccccc4)cc3OC(C)(C)[C@@H]2CC1,CNR1,"GTPγS binding, agonist, radiometric",cell membranes,EC50,171 nM
CCCCC/C=C\C/C=C\C/C=C\C/C=C\CCCC(=O)NCc1ccc(O)c(OC)c1,CNR1,"ligand displacement in cells, radioligand",,Ki,39.5 nM
CCCCCn1cc(C(=O)c2ccc3c(c2)CC(C)(C)C3)c2ccccc21,CNR1 L359V,"G protein activation, agonist, BRET",,EC50,537 nM
CCCCn1c2ccccc2c2cc(C(=O)c3cccc4ccccc34)ccc21,CNR1,"cAMP, agonist, BRET",,EC50,129 nM
CCOC(=O)[C@](CC)(CCCSCCOCCOCCNc1ccc([N+](=O)[O-])c2nonc12)NC(=O)c1ccc(C2CC2)c(Cc2ccc(F)cc2)n1,CNR1,"cAMP, agonist",,EC50,> 10000 nM
